Assay results of several laboratories.
Each numbered part is a random draw from the data of one study; scales do not carry over between parts. Changes are numbered by the printed parent chain.
Chain of UniProt Q6XUX3 (whole entry, looked up): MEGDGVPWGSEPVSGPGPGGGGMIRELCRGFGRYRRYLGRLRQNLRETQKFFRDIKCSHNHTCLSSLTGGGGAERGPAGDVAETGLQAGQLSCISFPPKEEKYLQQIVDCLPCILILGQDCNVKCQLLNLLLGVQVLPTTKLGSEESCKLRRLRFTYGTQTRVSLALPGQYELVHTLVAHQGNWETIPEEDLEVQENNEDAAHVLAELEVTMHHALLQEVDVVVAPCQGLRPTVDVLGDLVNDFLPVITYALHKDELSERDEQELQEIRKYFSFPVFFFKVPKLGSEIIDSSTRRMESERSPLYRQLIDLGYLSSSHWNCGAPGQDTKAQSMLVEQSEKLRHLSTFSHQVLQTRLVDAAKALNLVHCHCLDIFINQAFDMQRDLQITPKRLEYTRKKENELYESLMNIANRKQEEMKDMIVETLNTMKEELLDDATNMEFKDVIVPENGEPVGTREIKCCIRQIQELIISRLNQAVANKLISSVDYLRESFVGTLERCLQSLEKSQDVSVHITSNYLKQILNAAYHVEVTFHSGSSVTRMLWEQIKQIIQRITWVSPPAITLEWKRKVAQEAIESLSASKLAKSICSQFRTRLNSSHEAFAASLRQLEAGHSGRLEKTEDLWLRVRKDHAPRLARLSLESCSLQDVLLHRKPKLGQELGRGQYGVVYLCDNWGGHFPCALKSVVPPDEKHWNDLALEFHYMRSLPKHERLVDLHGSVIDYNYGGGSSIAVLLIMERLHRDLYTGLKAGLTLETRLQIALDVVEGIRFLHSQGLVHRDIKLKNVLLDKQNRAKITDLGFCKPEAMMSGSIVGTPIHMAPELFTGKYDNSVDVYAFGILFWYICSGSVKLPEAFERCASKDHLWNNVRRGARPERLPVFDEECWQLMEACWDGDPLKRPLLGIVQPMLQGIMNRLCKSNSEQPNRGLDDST
Chain of UniProt Q59H18 (whole entry, looked up): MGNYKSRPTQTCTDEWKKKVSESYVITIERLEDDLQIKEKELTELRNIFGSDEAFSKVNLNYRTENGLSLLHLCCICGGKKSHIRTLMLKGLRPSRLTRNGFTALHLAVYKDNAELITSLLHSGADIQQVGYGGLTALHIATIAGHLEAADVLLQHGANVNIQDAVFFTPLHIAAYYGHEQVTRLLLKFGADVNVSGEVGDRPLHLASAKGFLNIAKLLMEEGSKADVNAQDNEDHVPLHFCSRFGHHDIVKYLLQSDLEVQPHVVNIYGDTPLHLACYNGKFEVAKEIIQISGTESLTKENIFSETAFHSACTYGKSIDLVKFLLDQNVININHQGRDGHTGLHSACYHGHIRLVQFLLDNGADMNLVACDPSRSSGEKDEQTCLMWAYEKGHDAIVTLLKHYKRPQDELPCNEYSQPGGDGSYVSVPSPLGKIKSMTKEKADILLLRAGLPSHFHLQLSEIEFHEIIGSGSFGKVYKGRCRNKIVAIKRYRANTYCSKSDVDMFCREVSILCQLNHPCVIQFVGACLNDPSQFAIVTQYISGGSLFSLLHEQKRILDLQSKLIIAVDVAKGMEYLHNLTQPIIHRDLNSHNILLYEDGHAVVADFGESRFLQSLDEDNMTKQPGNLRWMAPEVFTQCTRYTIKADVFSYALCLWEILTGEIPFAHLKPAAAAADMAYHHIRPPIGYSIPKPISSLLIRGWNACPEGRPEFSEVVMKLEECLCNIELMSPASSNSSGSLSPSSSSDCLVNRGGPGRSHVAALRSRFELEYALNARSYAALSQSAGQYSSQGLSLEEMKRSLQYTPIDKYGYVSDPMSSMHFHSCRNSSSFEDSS
Chain of UniProt P14616 (whole entry, looked up): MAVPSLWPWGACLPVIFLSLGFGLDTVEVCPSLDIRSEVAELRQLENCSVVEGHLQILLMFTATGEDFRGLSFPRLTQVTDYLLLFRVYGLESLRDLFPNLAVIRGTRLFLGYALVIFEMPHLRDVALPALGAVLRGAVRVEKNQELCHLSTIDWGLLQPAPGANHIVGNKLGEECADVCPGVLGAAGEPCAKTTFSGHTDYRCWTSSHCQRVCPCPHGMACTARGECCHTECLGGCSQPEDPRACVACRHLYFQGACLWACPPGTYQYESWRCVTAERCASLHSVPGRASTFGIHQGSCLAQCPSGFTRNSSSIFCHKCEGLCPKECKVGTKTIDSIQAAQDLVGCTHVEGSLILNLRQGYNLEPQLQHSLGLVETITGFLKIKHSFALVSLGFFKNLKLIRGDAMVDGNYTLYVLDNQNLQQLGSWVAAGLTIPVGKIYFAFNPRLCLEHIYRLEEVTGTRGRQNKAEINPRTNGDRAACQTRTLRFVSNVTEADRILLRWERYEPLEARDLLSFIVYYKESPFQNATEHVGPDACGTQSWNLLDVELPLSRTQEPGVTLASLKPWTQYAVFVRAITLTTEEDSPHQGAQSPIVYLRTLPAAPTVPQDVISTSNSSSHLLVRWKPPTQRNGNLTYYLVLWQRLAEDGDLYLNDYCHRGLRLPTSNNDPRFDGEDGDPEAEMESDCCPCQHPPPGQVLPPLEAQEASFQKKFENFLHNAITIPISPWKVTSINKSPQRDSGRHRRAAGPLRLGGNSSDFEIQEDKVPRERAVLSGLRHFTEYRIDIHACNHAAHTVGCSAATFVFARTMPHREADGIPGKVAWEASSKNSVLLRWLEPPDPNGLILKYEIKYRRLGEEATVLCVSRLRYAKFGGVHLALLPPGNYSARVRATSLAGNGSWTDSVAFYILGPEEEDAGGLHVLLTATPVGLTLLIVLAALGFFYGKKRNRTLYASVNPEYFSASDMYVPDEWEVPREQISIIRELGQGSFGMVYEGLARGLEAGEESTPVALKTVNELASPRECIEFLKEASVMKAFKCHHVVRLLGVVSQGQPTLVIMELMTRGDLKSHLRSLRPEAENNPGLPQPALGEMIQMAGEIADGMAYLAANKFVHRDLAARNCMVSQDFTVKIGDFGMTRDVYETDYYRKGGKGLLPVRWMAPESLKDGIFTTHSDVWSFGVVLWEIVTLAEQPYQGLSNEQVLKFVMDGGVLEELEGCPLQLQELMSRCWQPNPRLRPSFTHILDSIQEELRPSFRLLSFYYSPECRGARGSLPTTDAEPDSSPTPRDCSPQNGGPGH
Chain of UniProt P49137 (whole entry, looked up): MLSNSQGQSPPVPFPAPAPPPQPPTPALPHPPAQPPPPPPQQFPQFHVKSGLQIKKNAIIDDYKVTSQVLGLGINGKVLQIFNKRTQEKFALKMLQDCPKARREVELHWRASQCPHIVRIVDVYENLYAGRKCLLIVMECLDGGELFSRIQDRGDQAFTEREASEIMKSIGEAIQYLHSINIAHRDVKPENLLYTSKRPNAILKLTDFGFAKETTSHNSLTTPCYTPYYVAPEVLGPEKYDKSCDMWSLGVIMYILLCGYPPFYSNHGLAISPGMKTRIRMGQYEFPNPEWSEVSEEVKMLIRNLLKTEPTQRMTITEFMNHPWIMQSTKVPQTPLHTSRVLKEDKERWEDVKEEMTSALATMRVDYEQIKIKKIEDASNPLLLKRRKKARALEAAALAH
Chain of UniProt Q9HC98 (whole entry, looked up): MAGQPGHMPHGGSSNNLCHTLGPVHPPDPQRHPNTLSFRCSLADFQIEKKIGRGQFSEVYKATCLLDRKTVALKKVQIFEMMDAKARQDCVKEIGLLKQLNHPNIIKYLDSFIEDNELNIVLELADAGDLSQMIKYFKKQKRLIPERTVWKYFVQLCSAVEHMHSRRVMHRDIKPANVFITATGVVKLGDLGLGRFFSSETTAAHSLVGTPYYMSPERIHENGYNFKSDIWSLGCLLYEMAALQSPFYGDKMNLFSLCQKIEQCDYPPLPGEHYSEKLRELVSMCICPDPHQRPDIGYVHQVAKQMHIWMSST
Chain of UniProt P57078 (whole entry, looked up): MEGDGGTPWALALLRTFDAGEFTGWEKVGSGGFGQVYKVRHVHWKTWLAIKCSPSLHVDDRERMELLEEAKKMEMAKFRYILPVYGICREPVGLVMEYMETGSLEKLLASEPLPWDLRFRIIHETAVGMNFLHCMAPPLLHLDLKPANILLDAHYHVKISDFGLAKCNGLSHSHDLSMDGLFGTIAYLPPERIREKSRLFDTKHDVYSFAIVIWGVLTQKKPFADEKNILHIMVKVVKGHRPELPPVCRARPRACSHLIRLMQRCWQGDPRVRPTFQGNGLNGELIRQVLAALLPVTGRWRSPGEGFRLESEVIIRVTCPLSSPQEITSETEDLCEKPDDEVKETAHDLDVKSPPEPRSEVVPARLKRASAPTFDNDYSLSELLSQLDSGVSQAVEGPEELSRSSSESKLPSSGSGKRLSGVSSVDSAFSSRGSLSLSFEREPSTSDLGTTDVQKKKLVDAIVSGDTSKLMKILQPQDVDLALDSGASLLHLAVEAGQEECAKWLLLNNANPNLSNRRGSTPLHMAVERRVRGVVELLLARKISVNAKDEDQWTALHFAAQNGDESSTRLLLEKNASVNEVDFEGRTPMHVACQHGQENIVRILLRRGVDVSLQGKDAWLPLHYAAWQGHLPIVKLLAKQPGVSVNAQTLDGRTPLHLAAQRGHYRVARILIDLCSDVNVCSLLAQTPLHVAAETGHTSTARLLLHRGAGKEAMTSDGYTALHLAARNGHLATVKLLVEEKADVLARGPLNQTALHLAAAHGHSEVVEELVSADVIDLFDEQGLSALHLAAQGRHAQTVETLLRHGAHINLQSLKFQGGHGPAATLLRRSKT
Chain of UniProt Q96Q40 (whole entry, looked up): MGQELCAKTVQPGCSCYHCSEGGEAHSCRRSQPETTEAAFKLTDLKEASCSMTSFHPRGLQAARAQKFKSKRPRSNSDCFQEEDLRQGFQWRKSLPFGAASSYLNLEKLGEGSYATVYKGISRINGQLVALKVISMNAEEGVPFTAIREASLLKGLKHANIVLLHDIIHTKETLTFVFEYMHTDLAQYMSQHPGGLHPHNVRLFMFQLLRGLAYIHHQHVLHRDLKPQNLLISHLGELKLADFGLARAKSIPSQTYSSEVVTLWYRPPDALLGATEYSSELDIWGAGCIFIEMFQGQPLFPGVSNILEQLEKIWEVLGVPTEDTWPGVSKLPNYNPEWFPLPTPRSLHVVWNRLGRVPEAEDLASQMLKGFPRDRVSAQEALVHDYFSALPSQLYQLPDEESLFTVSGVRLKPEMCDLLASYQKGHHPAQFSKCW

Study 1 — target: CREB3L1, bZIP domain (human); method: DHFR protein complementation; matrix: yeast; baseline: wild-type JUN-FOS pair; direction: higher = stronger binding
Setting: single substitutions, most at no-binding floor
Starting sequence: JUN, bZIP domain (human); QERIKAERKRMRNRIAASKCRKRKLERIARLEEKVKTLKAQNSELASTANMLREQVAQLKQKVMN; partner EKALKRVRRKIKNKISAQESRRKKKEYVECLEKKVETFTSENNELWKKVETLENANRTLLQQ
The binding fitness of `Q55P` is reported as -1.46 natural log.
`Q58P` has a binding fitness of -1.31 natural log.
`L38T` has a binding fitness of -1.47 natural log.
For `K39V`, the binding fitness was -1.49 natural log.
`E32V` has a binding fitness of -1.4 natural log.
For `E44Y`, the binding fitness was -1.53 natural log.
`E54P` gave a binding fitness of -1.53 natural log.
For `E44L`, the binding fitness was -1.46 natural log.

Study 2 — organism: Sarcocystis neurona; observed: parasite growth; concentration: 10 µM
`CC(C)Cc1ccc(C(C)C(=O)O)cc1` (centres unmarked) gave an inhibition of -23.7%.
With `O=C(NCCN1CCOCC1)c1ccc(Cl)cc1` the inhibition was -33.4%.
`CC(=O)/N=c1/sc(S(N)(=O)=O)nn1C` has an inhibition of -19.8%.

Study 3 — method: PRP chromatography estimate; matrix: 1,9-decadiene/PBS; pH: 7.4
The logD of `CCOC(=O)[C@@H]1CSCC(=O)N[C@H](CC)C(=O)N(C)[C@@H](C)C(=O)N[C@@H](CC(C)C)C(=O)N2CCC[C@@H]2C(=O)N(CC)CC(=O)N[C@H](CC(C)C)C(=O)N(C)[C@H](C)C(=O)N[C@@H](CC(C)C)C(=O)N1C` is reported as -0.373.
`CC(C)C[C@@H]1NC(=O)[C@H](CC(C)C)NC(=O)[C@H](CC(C)C)NC(=O)[C@H](C(C)C)NC(=O)[C@@H](Cc2cscn2)NC(=O)[C@H](C)NC(=O)[C@H](CCC(=O)N2CCCC2)NC1=O` gave a logD of -2.08.
For `CC(C)C[C@@H]1NC(=O)[C@H](C)NC(=O)[C@H](Cc2cscn2)NC(=O)[C@@H](CC(C)C)NC(=O)[C@@H](CCC(=O)N2CCCC2)NC(=O)[C@H](CC(C)C)NC(=O)[C@@H](CC(C)C)NC1=O`, the logD was -1.02.
For `CC(C)C[C@@H]1NC(=O)[C@H](C(C)C)NC(=O)[C@H](CCC(=O)N2CCCC2)NC(=O)[C@H](CC(C)C)NC(=O)[C@@H](Cc2cscn2)NC(=O)[C@H](CC(C)C)NC(=O)[C@@H](CC(C)C)NC1=O`, the logD was -0.595.

Study 4 — cell line: mouse MPNST tumor cells; method: high-content immunofluorescence imaging; item: nuclear SOX9; concentration: 10 µM; time: 12 h; setting: mean of 2 replicates; baseline: DMSO control; direction: higher = more nuclear SOX9
`CCOC(=O)OC(C)OC1=C(C(=O)Nc2ccccn2)N(C)S(=O)(=O)c2ccccc21` (centres unmarked) — result for “nuclear SOX9 intensity”: 88.1 % of DMSO.
`CO/N=C1\CN(c2nc3c(cc2F)c(=O)c(C(=O)O)cn3C2CC2)CC1CN` (centres unmarked) — result for “nuclear SOX9 intensity”: 121 % of DMSO.
Under “nuclear SOX9 intensity”, `CC(=O)O[C@]1(C(C)=O)CC[C@H]2[C@@H]3C=C(C)C4=CC(=O)CC[C@@H]4[C@H]3CC[C@@]21C` is recorded as 88.4 % of DMSO.

Study 5 — Structure (SMILES): FC(F)(F)c1ccc2c(c1)nc(-c1cccnc1)n2C1CC1; observed: cell-free assay; method: competition with immobilised ligand; concentration: 1 µM
It gave 100% for remaining binding (Receptor-type tyrosine-protein kinase FLT3 (FLT3, Homo sapiens, UniProt P36888, ITD)).
It gave 100% for remaining binding (MAP kinase-activated protein kinase 2 (MAPKAPK2, Homo sapiens, UniProt P49137)).
For Insulin receptor-related protein (INSRR, Homo sapiens, UniProt P14616): remaining binding read 100%.
The remaining binding was 100% (ALK tyrosine kinase receptor (ALK, Homo sapiens, UniProt Q9UM73, C1156Y)).
Tyrosine-protein kinase ABL2 (ABL2, Homo sapiens, UniProt P42684) — remaining binding: 100%.
For Tyrosine-protein kinase ABL1, phosphorylated (ABL1, Homo sapiens, UniProt P00519): remaining binding read 91%.
It gave 100% for remaining binding (Serine/threonine-protein kinase DCLK2 (DCLK2, Homo sapiens, UniProt Q8N568)).
The remaining binding was 100% (Tyrosine-protein kinase ABL1, phosphorylated (ABL1, Homo sapiens, UniProt P00519, Y253F)).
For Dual serine/threonine and tyrosine protein kinase (DSTYK, Homo sapiens, UniProt Q6XUX3): remaining binding read 100%.
It gave 89% for remaining binding (Interferon-induced, double-stranded RNA-activated protein kinase (EIF2AK2, Homo sapiens, UniProt P19525)).
For Tyrosine-protein kinase JAK3, JH1 (JAK3, Homo sapiens, UniProt P52333): remaining binding read 100%.
The remaining binding was 100% (Serine/threonine-protein kinase Nek6 (NEK6, Homo sapiens, UniProt Q9HC98)).
cGMP-dependent protein kinase 2 (PRKG2, Homo sapiens, UniProt Q13237) — remaining binding: 78%.
For Receptor-interacting serine/threonine-protein kinase 4 (RIPK4, Homo sapiens, UniProt P57078): remaining binding read 95%.
It gave 100% for remaining binding (Serine/threonine-protein kinase TNNI3K (TNNI3K, Homo sapiens, UniProt Q59H18)).
The remaining binding was 100% (Cyclin-dependent kinase 15 (CDK15, Homo sapiens, UniProt Q96Q40)).
It gave 100% for remaining binding (Cyclin-dependent kinase 14 (CDK14, Homo sapiens, UniProt O94921)).

Study 6 — species: mouse; matrix: microsomes or S9; concentration: 2 µM; time: 0.5 h
The remaining compound of `CN1CCCCCCN(S(=O)(=O)c2cccc(F)c2)CCC1=O` is reported as 0.0605%.
The remaining compound of `CCc1nc(CNc2ncnc3cc(Br)sc23)co1` is reported as 0.499%.
The remaining compound of `COc1ccc(Cl)cc1S(=O)(=O)NCCn1c(-c2ccncc2)nc2ccccc21` is reported as 5.5%.

A few entries again (study 1):
`E54P` gave a binding fitness of -1.53 natural log.
For `E44L`, the binding fitness was -1.46 natural log.
